Published values from different studies.
Numbered parts are unrelated; each lists some results of a single study. “And” joins repeats or separate records; there may be more than shown.
Chain of UniProt Q99683 (whole entry, looked up): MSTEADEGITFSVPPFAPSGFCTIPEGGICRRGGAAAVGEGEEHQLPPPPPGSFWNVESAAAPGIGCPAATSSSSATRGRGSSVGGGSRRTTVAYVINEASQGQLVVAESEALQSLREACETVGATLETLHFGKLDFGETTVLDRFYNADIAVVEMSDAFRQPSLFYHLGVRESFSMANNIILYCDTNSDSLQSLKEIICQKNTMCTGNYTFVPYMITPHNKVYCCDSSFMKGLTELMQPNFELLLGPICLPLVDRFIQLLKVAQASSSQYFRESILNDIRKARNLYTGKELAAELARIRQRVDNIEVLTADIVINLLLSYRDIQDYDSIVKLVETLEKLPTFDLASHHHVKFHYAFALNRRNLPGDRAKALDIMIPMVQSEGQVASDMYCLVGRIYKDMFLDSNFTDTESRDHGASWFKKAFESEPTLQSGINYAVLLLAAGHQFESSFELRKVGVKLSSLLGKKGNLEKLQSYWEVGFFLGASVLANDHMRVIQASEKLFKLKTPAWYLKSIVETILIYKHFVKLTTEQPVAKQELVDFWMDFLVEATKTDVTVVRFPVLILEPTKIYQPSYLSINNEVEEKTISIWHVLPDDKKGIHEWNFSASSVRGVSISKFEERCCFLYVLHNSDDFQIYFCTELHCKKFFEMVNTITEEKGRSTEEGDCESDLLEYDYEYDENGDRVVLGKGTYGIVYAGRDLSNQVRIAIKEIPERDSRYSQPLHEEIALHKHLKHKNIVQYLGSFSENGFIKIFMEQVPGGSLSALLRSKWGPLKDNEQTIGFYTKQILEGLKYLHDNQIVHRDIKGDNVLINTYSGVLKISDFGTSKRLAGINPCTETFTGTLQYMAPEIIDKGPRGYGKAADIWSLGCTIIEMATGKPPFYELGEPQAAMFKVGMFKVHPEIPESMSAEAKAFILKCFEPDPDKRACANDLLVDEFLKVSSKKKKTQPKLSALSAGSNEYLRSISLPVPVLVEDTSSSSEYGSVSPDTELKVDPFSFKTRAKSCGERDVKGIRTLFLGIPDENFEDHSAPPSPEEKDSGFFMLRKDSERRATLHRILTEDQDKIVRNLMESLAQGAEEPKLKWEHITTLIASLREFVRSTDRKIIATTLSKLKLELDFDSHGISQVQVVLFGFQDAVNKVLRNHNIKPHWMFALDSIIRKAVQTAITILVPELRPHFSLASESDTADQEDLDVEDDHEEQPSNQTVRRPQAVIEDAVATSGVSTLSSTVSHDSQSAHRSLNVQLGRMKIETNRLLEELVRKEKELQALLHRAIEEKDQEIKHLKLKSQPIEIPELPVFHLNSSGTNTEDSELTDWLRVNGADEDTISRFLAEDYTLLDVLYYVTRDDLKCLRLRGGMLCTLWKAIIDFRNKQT
Chain of UniProt P53350 (whole entry, looked up): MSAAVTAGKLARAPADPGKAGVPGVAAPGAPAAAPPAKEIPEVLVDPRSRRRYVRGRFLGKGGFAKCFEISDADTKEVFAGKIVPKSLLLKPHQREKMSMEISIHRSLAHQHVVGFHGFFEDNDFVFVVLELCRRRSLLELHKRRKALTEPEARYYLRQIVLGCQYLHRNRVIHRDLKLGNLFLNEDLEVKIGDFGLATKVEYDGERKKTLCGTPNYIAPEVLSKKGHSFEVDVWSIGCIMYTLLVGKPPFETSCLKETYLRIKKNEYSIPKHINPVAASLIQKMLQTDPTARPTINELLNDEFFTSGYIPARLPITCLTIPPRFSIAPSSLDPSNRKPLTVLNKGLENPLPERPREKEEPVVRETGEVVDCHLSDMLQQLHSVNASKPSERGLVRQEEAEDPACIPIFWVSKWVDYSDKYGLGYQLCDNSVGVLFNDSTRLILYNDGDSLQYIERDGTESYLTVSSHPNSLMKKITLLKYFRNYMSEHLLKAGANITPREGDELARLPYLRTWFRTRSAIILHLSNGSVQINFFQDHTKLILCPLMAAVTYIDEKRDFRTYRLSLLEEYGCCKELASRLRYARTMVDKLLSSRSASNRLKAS
Chain of UniProt Q2M2I8 (whole entry, looked up): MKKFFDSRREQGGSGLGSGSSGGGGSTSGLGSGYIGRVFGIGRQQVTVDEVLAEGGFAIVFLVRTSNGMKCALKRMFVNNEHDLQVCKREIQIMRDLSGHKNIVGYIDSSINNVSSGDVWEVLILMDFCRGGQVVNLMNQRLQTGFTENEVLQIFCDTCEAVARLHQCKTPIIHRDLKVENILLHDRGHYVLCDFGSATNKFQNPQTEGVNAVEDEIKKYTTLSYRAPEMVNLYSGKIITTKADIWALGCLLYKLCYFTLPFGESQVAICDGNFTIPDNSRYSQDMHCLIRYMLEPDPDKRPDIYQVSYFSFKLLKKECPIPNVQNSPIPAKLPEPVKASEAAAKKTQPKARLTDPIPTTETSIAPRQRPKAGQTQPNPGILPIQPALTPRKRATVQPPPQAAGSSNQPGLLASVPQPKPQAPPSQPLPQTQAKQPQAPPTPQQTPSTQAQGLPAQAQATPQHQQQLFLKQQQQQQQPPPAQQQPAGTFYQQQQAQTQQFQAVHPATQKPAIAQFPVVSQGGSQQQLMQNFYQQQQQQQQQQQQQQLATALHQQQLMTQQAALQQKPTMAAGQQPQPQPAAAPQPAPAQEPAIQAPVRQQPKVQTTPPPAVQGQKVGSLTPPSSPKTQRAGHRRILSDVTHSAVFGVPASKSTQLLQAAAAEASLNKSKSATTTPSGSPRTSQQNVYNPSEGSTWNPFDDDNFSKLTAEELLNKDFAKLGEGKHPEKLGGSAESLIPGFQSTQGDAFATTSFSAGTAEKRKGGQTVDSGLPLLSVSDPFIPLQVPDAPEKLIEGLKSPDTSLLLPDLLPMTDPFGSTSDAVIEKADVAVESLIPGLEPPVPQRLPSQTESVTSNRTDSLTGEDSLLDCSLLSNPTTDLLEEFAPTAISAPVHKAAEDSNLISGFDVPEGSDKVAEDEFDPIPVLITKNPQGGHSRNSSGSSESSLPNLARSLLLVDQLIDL
Chain of UniProt P49760 (whole entry, looked up): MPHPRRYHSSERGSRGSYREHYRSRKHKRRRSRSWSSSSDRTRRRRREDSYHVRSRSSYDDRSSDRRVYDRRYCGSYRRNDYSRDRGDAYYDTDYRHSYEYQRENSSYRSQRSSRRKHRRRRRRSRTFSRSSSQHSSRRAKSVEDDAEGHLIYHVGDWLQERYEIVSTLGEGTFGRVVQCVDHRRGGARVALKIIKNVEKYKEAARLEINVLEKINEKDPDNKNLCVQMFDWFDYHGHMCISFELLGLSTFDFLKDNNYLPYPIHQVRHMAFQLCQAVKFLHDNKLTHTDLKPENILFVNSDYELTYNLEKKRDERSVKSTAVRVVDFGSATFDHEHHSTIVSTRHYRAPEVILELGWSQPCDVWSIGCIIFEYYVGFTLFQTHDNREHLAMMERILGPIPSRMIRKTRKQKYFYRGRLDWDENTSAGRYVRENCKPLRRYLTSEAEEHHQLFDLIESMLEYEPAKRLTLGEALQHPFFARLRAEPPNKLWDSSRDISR
Chain of UniProt Q9HAZ1 (whole entry, looked up): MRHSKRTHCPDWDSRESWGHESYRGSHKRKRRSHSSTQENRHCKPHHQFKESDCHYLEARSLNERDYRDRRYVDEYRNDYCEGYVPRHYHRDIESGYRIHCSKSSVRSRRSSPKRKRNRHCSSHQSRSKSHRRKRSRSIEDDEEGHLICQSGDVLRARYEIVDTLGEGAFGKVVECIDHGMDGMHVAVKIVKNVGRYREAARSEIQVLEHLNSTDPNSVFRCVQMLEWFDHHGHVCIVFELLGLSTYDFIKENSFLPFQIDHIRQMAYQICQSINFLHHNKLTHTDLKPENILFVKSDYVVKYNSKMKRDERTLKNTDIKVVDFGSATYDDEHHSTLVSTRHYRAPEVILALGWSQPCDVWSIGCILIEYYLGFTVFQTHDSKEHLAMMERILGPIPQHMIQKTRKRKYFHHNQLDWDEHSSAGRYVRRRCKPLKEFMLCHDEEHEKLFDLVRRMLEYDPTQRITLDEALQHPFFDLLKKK

Series 1
Compound: C[C@@H]1CN(c2cc(-c3n[nH]c4ccc(OC5(C)CC5)cc34)ncn2)C[C@H](C)O1
Endpoint: EC50
TTK: Dual specificity protein kinase TTK (TTK, Homo sapiens, UniProt P33981)
Chain of UniProt P33981 (whole entry, looked up): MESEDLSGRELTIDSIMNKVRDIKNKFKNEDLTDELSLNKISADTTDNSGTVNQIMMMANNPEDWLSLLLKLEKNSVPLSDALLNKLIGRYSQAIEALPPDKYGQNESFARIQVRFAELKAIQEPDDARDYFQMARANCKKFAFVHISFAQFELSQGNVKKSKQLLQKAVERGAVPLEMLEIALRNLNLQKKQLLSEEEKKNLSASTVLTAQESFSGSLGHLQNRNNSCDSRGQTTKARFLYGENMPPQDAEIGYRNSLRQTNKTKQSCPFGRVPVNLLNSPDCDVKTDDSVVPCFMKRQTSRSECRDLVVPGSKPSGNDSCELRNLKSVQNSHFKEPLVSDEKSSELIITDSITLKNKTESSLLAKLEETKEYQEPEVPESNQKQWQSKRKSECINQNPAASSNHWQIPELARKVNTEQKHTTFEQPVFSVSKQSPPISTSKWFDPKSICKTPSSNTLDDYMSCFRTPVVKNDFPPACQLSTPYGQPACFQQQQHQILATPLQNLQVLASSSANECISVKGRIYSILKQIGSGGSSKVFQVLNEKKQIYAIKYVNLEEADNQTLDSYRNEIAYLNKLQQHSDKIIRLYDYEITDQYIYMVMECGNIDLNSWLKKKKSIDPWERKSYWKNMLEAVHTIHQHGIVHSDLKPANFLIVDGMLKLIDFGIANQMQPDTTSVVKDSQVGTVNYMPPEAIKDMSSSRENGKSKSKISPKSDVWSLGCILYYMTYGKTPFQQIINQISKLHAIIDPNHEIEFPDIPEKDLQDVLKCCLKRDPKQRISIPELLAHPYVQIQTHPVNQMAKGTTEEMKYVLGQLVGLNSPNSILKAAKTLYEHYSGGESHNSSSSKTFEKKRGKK
MAP3K14 (Homo sapiens, UniProt Q99558); target engagement, NanoBRET; live cells: > 50 µM
MAP3K5 (Homo sapiens, UniProt Q99683); target engagement, NanoBRET; live cells: 4.33 µM and 15.2 µM and 15.9 µM
CLK2 (Homo sapiens, UniProt P49760); target engagement in cells, BRET: 2 µM
TTK; target engagement in cells, BRET: > 50 µM
TTK; target engagement, NanoBRET: > 50 µM
CLK4 (Homo sapiens, UniProt Q9HAZ1); target engagement in cells, BRET: 24 µM

Series 2
SMILES: CCC(=O)N1CCN(c2nc(OC[C@@H]3CCCN3C)nc3c2CCN(c2cccc4cccc(Cl)c24)C3)C[C@@H]1CC#N
Target: GTPase KRas (KRAS, Homo sapiens, UniProt P01116, Q61H)
Read-out: binding
Mode: competitor
Method: NanoBRET
Cell line: HEK293
Endpoint: normalized BRET
5.08 nM: 95.1% and 96.9% and 103%
15.2 nM: 99% and 99.8% and 92.7%
1.69 nM: 99.3% and 94.5% and 111%

Series 3
Target: cGMP-dependent protein kinase 2 (PRKG2, Homo sapiens, UniProt Q13237)
Read-out: enzyme activity
Mode: inhibitor
Concentration: 0.5 µM
Reference: control
Endpoint: remaining activity
Residues (Q13237 1-762): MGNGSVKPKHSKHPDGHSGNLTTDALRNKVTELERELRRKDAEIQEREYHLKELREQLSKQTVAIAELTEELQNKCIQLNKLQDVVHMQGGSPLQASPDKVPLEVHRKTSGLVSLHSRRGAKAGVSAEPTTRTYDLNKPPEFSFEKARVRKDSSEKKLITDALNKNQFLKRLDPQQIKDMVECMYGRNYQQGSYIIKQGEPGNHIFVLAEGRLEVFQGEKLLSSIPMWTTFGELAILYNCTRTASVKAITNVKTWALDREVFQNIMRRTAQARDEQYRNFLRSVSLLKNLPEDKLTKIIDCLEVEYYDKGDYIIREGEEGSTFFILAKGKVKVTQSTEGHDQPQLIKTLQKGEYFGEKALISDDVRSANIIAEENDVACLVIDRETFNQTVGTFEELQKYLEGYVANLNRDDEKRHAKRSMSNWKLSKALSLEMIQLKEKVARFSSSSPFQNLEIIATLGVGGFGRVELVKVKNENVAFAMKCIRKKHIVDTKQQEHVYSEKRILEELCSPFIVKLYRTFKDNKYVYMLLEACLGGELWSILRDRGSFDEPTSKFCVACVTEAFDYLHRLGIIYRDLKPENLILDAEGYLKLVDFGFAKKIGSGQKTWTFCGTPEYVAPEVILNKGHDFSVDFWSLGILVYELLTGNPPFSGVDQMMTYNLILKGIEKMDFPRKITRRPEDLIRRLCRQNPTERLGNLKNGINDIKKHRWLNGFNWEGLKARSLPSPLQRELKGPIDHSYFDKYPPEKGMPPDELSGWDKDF
Cn1sc(=O)n(Cc2ccccc2)c1=O: 108%
O=C1NC(=O)C(c2cn(CCCn3ccnc3)c3ccccc23)=C1Nc1ccccc1: 80.3%
CO[C@H]1C[C@@H]2CC[C@@H](C)[C@@](O)(O2)C(=O)C(=O)N2CCCC[C@H]2C(=O)O[C@H]([C@H](C)C[C@@H]2CC[C@@H](O)[C@H](OC)C2)CC(=O)[C@H](C)/C=C(\C)[C@@H](O)[C@@H](OC)C(=O)[C@H](C)C[C@H](C)/C=C/C=C/C=C/1C: 91.9%
OCC(O)CCON=C1C(c2c(O)[nH]c3ccccc23)=Nc2ccccc21 (stereo not drawn): 28.1%
O=S(=O)(c1cccc2cnccc12)N1CCCNCC1: 98.9%
O=c1c2ccccc2[nH]c(=S)n1CCN1CCC(=C(c2ccc(F)cc2)c2ccc(F)cc2)CC1: 104%
O=C(Nc1cccc(Nc2cc(Nc3cccc(C(F)(F)F)c3)ncn2)c1)C1CC1: 103%
COc1ccc(C(=O)Nc2sc3c(c2C(N)=O)CCCC3)cc1OC: 104%
Oc1ccc(-c2nc(-c3ccncc3)c(-c3ccc(F)cc3)[nH]2)cc1: 94.2%
Cc1cccc(-c2[nH]c(C(C)(C)C)nc2-c2ccc3c(c2)OCO3)n1: 95.9%
Nc1ncnc2n[nH]c(Nc3ccc(F)cc3)c12: 97%
CNC(=O)c1cc(Oc2ccc(NC(=O)Nc3ccc(Cl)c(C(F)(F)F)c3)cc2)ccn1: 90.9%
Nc1[nH]nc2nc3ccccc3nc12: 66.7%
Cn1c2ccccc2c2c3c(c4c5ccccc5n(CCC#N)c4c21)CNC3=O: 28.2%

Series 4
Compound: c1ccc(Oc2ccc(Nc3c4c(nc5ccccc35)CCC4)cc2)cc1
Organism: Leishmania donovani
Endpoint: inhibition
parasite killing; DD8, promastigotes; 1.66 µM, 72 h: 84% and 81%
parasite growth, high-content imaging; MHOM/IN/80/DD8, amastigotes in THP-1 cells; 80 µM: 100%
parasite killing; DD8, intracellular amastigotes; 0.004 µM, 24 h: 0%
parasite killing; DD8, promastigotes; 0.33 µM, 48 h: 31% and 27% and 30%
parasite killing; DD8, intracellular amastigotes; 40 µM, 96 h: 100%
parasite killing; DD8, promastigotes; 6.66 µM, 72 h: 99% and 91% and 100%

Series 5
SMILES: CN1CCN(C(=O)c2ccc(NC(=O)Nc3ccc(N(C)c4ccnc(Nc5ccc(CS(C)(=O)=O)cc5)n4)cc3)cc2)CC1
Read-out: binding
Concentration: 1 µM
Endpoint: remaining binding
PLK1 (Homo sapiens, UniProt P53350): 100%
FGFR1 (Homo sapiens, UniProt P11362); competition with immobilised ligand: 100%
AAK1 (Homo sapiens, UniProt Q2M2I8); competition with immobilised ligand: 19%
SIK2 (Homo sapiens, UniProt Q9H0K1); competition with immobilised ligand: 56%
